Published values from different studies.
Lines come from different studies, so protocols differ. ± gives the spread as reported. ≈ marks a conversion by molar mass, not a printed value.

Substance = CC(C)(O)c1ccccc1-c1ccc2[nH]c(/C=C/c3ccc(C(F)(F)F)cc3)nc2c1; system = human; setting = max heat pain detection threshold; endpoint = plasma concentration; result = ≥ 100 ng/mL
Substance = COc1ccc(-c2nc3ccccc3s2)cc1OCc1nnc(-c2c(C)cccc2C)o1; assay = hind limb tonic extension; system = albino mouse, MES-induced seizure; setting = ip, 4.0 h; endpoint = minimal effective dose; result = 300 mg/kg
Substance = Cc1csc(-c2nnc(Nc3ccc(Oc4ncccc4-c4ccnc(N)n4)cc3)c3ccccc23)c1; system = human; setting = 40 mg; endpoint = stable disease duration; result = > 3 years
Substance = CC[C@H](C)[C@H](NC(=O)[C@H](Cc1ccc(O)cc1)NC(=O)[C@H](CCC(=O)O)NC(=O)[C@H](CCCNC(=N)N)NC(=O)[C@@H](NC(=O)[C@H](Cc1c[nH]c2ccccc12)NC(=O)[C@H](CCCCN)NC(=O)[C@H](CCCCN)NC(=O)[C@H](CCC(=O)O)NC(=O)CNC(=O)CON=C(C)CCCC(=O)NCCCC[C@@H]1NC(=O)[C@H](CCC(=O)O)NC(=O)[C@H](CCCCNC(=O)CCCC(C)=NOCC(=O)NCC(=O)N[C@@H](CCC(=O)O)C(=O)N[C@@H](CCCCN)C(=O)N[C@@H](CCCCN)C(=O)N[C@@H](Cc2c[nH]c3ccccc23)C(=O)N[C@H](C(=O)N[C@@H](CCCNC(=N)N)C(=O)N[C@@H](CCC(=O)O)C(=O)N[C@@H](Cc2ccc(O)cc2)C(=O)N[C@H](C(=O)N[C@@H](CC(N)=O)C(=O)N[C@@H](CO)C(=O)N[C@@H](CC(C)C)C(=O)N[C@@H](CCC(=O)O)C(=O)N[C@@H](CCSC)C(=O)N[C@@H](CO)C(=O)O)[C@@H](C)CC)C(C)C)NC(=O)[C@@H]2CCCN2C(=O)[C@H](CSCC(N)=O)NC(=O)[C@H](CCCCNC(=O)CCCC(C)=NOCC(=O)NCC(=O)N[C@@H](CCC(=O)O)C(=O)N[C@@H](CCCCN)C(=O)N[C@@H](CCCCN)C(=O)N[C@@H](Cc2c[nH]c3ccccc23)C(=O)N[C@H](C(=O)N[C@@H](CCCNC(=N)N)C(=O)N[C@@H](CCC(=O)O)C(=O)N[C@@H](Cc2ccc(O)cc2)C(=O)N[C@H](C(=O)N[C@@H](CC(N)=O)C(=O)N[C@@H](CO)C(=O)N[C@@H](CC(C)C)C(=O)N[C@@H](CCC(=O)O)C(=O)N[C@@H](CCSC)C(=O)N[C@@H](CO)C(=O)O)[C@@H](C)CC)C(C)C)NC(=O)[C@H](CCCCN)NC(=O)[C@H](CCCCNC(=O)CCCC(C)=NOCC(=O)NCC(=O)N[C@@H](CCC(=O)O)C(=O)N[C@@H](CCCCN)C(=O)N[C@@H](CCCCN)C(=O)N[C@@H](Cc2c[nH]c3ccccc23)C(=O)N[C@H](C(=O)N[C@@H](CCCNC(=N)N)C(=O)N[C@@H](CCC(=O)O)C(=O)N[C@@H](Cc2ccc(O)cc2)C(=O)N[C@H](C(=O)N[C@@H](CC(N)=O)C(=O)N[C@@H](CO)C(=O)N[C@@H](CC(C)C)C(=O)N[C@@H](CCC(=O)O)C(=O)N[C@@H](CCSC)C(=O)N[C@@H](CO)C(=O)O)[C@@H](C)CC)C(C)C)NC(=O)[C@@H]2CCCN2C(=O)CNC1=O)C(C)C)C(=O)N[C@@H](CC(N)=O)C(=O)N[C@@H](CO)C(=O)N[C@@H](CC(C)C)C(=O)N[C@@H](CCC(=O)O)C(=O)N[C@@H](CCSC)C(=O)N[C@@H](CO)C(=O)O; assay = flow cytometry; system = human blood platelets; setting = concentration not given, outcome inhibited, added: CXCL12 1 µg/mL; endpoint = Btk phosphorylation; result = inhibited
Substance = Cc1cc(C)c(/C=C2\C(=O)Nc3ccccc32)[nH]1; system = human, pediatric refractory CNS tumours; setting = dose not given, stratum II; how to read = reference: patients; endpoint = stable disease; result = 17%
Substance = CC(C)[C@@H]1CC[C@@H](C)C[C@H]1O; system = mice; setting = subcutaneous, 100 to 800 mg/kg; how to read = reference: saline; endpoint = time to return to control activity; result = ≤ 60 min
Substance = CCOC(=O)C=Cc1ccc(O)c(O)c1; assay = DPPH; system = ethanol; setting = 20 µM, 30 min, room temperature; endpoint = radical scavenging; result = 72%
Substance = O=C(NC[C@H]1CN(c2ccc(N3CCOCC3=O)cc2)C(=O)O1)c1ccc(Cl)s1; assay = thrombin generation; system = human platelet-poor plasma; setting = added: thrombomodulin; how to read = reference: without over with thrombomodulin; endpoint = IC50 ratio; result = 12 fold
Substance = O=C1NC(=O)C(c2ccccc2)(c2ccccc2)N1; assay = seizure protection; system = albino mouse, scPTZ-induced seizure; setting = ip, 4.0 h; endpoint = minimal effective dose; result = 30 mg/kg
Substance = COc1cccc2c1C(=O)c1c(O)c3c(c(O)c1C2=O)C[C@@](O)(C(=O)CO)C[C@@H]3O[C@H]1C[C@H](N)[C@H](O)[C@H](C)O1; system = mice bearing T47D xenografts; setting = 5 mg/kg once weekly, 20 days after inoculation, treated 2 weeks; endpoint = tumour volume; result = 53 ± 23.4 mm3
Substance = C=CCN1C[C@H](C(=O)N(CCCN(C)C)C(=O)NCC)C[C@@H]2c3cccc4[nH]cc(c34)C[C@H]21; system = giant prolactinoma patients; setting = mean 1.70 mg/week, mean 11.78 months; endpoint = nadir median prolactin; result = 47.2 ng/mL
Substance = COc1ccc(-c2nnc(COc3cc(-c4nc5ccccc5s4)ccc3OC)o2)cc1; assay = hind limb tonic extension; system = albino mouse, MES-induced seizure; setting = ip, 0.5 h; endpoint = minimal effective dose; result = 300 mg/kg
Substance = Nc1ccc2ccc3c4ccccc4ccc3c2c1; assay = inducer; system = female rat, liver; setting = oral, 10 mg, 24 h, sesame oil vehicle; endpoint = menadione reductase activity; result = 104 enzyme units
Substance = O=C1CCc2ccc(OCc3nnc(SCc4ccc(C(F)(F)F)cc4)o3)cc2N1; assay = forced swim test; system = mouse; setting = 40 mg/kg, 0.5 h; how to read = reference: vehicle; endpoint = decrease in immobility; result = 52.1%
Substance = CC(C)C[C@H](NC(=O)CCOCCOCCOCCNC(=O)COCC(=O)Nc1ccc(Oc2ccc3c4nc5nc(nc6[nH]c(nc7nc(nc([nH]4)c3c2)-c2cc(C(C)(C)C)ccc2-7)c2ccc(C(C)(C)C)cc62)-c2ccc(C(C)(C)C)cc2-5)cc1)C(=O)N[C@@H](C)C(=O)N[C@@H](CCCNC(=N)N)C(=O)N[C@@H](CC(C)C)C(=O)N[C@@H](CC(C)C)C(=O)N[C@H](C(N)=O)[C@@H](C)O; assay = near-IR fluorescence imaging; system = nude mice, HT-29 xenograft; setting = intravenous, 10 mg/kg; endpoint = time to tumour visibility; result = 24 h
Substance = CNCC(CS)CNC; system = nude mouse, A-431 xenograft; setting = topical, 1850 mM, four applications, 14 days, added: 12.1 Gy irradiation; how to read = reference: topical vehicle; endpoint = irradiated tumour growth; result = no effect
Substance = COc1ccc(-c2nc3ccccc3s2)cc1OCc1nnc(-c2ccc(N)cc2)o1; assay = hind limb tonic extension; system = albino mouse, MES-induced seizure; setting = ip, 4.0 h; endpoint = minimal effective dose; result = 100 mg/kg
Substance = NC(=O)[C@H](CCC(=O)O)NC(=O)[C@H](CCC(=O)O)NC(=O)[C@H](Cc1cc(-c2ccc(-c3cccc(Cl)c3)cc2)no1)CP(=O)(O)c1ccc(Br)cc1; system = plaque vascular smooth muscle cells, high-fat-fed apoE-knockout mice, atherosclerotic plaque; setting = dose not given; endpoint = apoptotic cells; result = 0.7 ± 0.3%
Substance = C[C@H]1C[C@H]2CSC(N)=N[C@@]2(c2nc(NC(=O)c3ccc(OC(F)F)cn3)cs2)CO1; assay = item: CSF Aβ1–42; system = healthy adults; setting = 50 mg once daily, 14 days, day 15; how to read = reference: placebo-adjusted baseline; endpoint = change from baseline; result = -69.9%
Substance = Cn1cnc2c(F)c(Nc3ccc(Br)cc3Cl)c(C(=O)NOCCO)cc21; assay = volumetric MRI; system = sample A plexiform neurofibroma patients, growing tumours; setting = dose not given; endpoint = partial response rate; result = 67%
Substance = O=C1O[C@H]([C@@H](O)CO)C(O)=C1O; assay = DPPH scavenging, absorbance; endpoint = IC50; result = 730 nM
Substance = O=C(NC[C@H]1CN(c2ccc(N3CCOCC3=O)cc2)C(=O)O1)c1ccc(Cl)s1; system = human, moderate renal impairment; setting = 10 mg, added: steady-state erythromycin; how to read = reference: normal renal function, compound alone; endpoint = prothrombin time Emax increase; result = ~22%
Substance = CCc1cc(-c2noc(-c3cc(OC)nc(C4CCCC4)c3)n2)cc(C)c1OC[C@@H](O)CO; system = C57BL/6 mice, MOG33-55 EAE; setting = dose not given, therapeutic treatment; how to read = direction not given; endpoint = time to clinical score 0.5; result = ≤ 6 days
Substance = SIIVFEKL; assay = flow cytometry, item: CD44hi CD8+ T cells; system = peptide, OT-I CD8+ T cells, mouse; setting = dose not given, primed 5 days, TGF-β1 from day 2 onward, added: 20 ng/mL TGF-β1; endpoint = IL-2 only cells; result = 17.6%
Substance = Fc1ccc(Nc2n[nH]c3cccnc23)cc1Cl; system = rat, haloperidol-induced catalepsy; setting = 30 mg/kg; endpoint = time to reversal of catalepsy; result = ≥ 6 h
Substance = CS/C(S)=N/CCCC[S+](C)[O-] (racemic); assay = RT-PCR, item: Alad; system = rat, colon; setting = oral gavage, 200 mg/kg, 96 h, dosed for four days; how to read = reference: vehicle; endpoint = mRNA fold change; result = 3.45
Substance = difelikefalin; system = Japanese haemodialysis patients with pruritus; setting = intravenous, 0.25 µg/kg thrice weekly, week 8; how to read = reference: baseline, direction not given; endpoint = NRS itch score change; result = -2.97
Substance = CCN(CC)c1ccc2nc3ccc(N=Nc4ccc(N(C)CCCC(=O)NCCCC[C@@H](NC(=O)CNC(=O)[C@H](CCCNC(=N)N)NC(=O)[C@@H](NC(=O)CNC(=O)[C@H](CC(C)C)NC(=O)[C@@H]5CCCN5C(=O)CNC(=O)CCCCC[N+]5=C(C=CC=CC=C6N(CC)c7ccc8c(S(=O)(=O)[O-])cc(S(=O)(=O)O)cc8c7C6(C)C)C(C)(C)c6c5ccc5c(S(=O)(=O)[O-])cc(S(=O)(=O)O)cc65)C(C)C)C(=O)NCC(=O)NCC(=O)NCCOCCOCCOCCOCCOCCOCCOCCOCCOCCOCCOCCO)cc4)cc3[n+](-c3ccccc3)c2c1; assay = ex vivo fluorescence imaging; system = nude mice SCC-7 tumour; setting = iv, 10 nmol/mouse, 2 h; endpoint = tumour to muscle ratio; result = 7.92 ± 1.3
Substance = CC(C)(O)CNc1nc(Nc2ccnc(C(F)(F)F)c2)nc(-c2cccc(C(F)(F)F)n2)n1; assay = item: 2-hydroxyglutarate; system = human newly diagnosed mIDH AML; setting = oral, 100 mg once daily, induction cycle 1 day 8, added: induction chemotherapy; endpoint = plasma 2-HG trough reduction; result = 82.8%
Substance = CC[C@H](C)[C@H](NC(=O)[C@H](CO)NC(=O)[C@H](CCC(N)=O)NC(=O)[C@H](CC(C)C)NC(=O)[C@H](Cc1ccc(O)cc1)NC(=O)[C@H](CCCCN)NC(=O)[C@H](CCCCN)NC(=O)[C@H](C)NC(=O)[C@H](C)NC(=O)[C@@H](NC(=O)[C@H](CCC(N)=O)NC(=O)[C@H](CCCCN)NC(=O)[C@H](CCCNC(=N)N)NC(=O)[C@H](CC(C)C)NC(=O)[C@H](CCCNC(=N)N)NC(=O)[C@@H](NC(=O)[C@H](Cc1ccc(O)cc1)NC(=O)[C@H](CC(N)=O)NC(=O)[C@H](CC(=O)O)NC(=O)[C@@H](NC(=O)[C@H](Cc1ccccc1)NC(=O)[C@@H](NC(=O)[C@H](C)NC(=O)[C@H](CC(=O)O)NC(=O)[C@H](CO)NC(=O)[C@@H](N)Cc1c[nH]cn1)C(C)C)[C@@H](C)O)[C@@H](C)O)C(C)C)C(=O)N[C@@H](CCCCN)C(=O)N[C@@H](CC(N)=O)C(=O)N[C@@H](CCCCN)C(=O)N[C@@H](CCCNC(=N)N)C(=O)N[C@@H](Cc1ccc(O)cc1)C(N)=O; assay = IPGTT; system = db/db mouse; setting = intraperitoneal, 20 nmol/kg, 15 to 120 min, dosed 15 min before glucose; how to read = reference: normal saline; endpoint = second-phase insulin secretion; result = 0.51 fold
Substance = [2H]c1c([2H])c([2H])c2c(C([2H])([2H])[2H])c3c(c([2H])c([2H])c4c([2H])c([2H])c([2H])c([2H])c43)c(C([2H])([2H])[2H])c2c1[2H]; assay = adrenal apoplexy prevention; system = rat; setting = oral, added: 7,12-DMBA 5 mg i.v.; endpoint = non-protective dose; result = 1 mg
Substance = O=C(O)/C=C/c1ccc(O)c(O)c1; assay = DPPH; system = ethanol; setting = 20 µM, 30 min, room temperature; endpoint = radical scavenging; result = 72%
Substance = COc1ccc(-c2nc3ccccc3s2)cc1OCc1nnc(-c2ccc([N+](=O)[O-])cc2)o1; assay = seizure protection; system = albino mouse, scPTZ-induced seizure; setting = ip, 0.5 h; endpoint = minimal effective dose; result = 30 mg/kg
Substance = CC(C(=O)O)c1ccc(-c2ccccc2)c(F)c1 (stereo not drawn); system = rat, carrageenan paw edema; setting = oral, 2 mg/kg; endpoint = time of maximum edema inhibition; result = ≤ 2 h
Substance = Nc1cc2c3ccccc3ccc2c2ccccc12; assay = inducer; system = female rat, liver; setting = oral, 10 mg, 24 h, sesame oil vehicle; endpoint = menadione reductase activity; result = 100 enzyme units
Substance = COc1cccc(CN(C)Cc2cccc(CN(C)Cc3cccc(OC)c3)n2)c1; system = mouse carrageenan paw edema; setting = ip, 10 mg/kg daily, 74 h; how to read = reference: vehicle; endpoint = paw edema inhibition; result = 31%
Substance = neuropeptide Y; system = Sprague Dawley rat, urethane-anaesthetised; setting = intravenous, 5 nmol; endpoint = time to peak bradycardia; result = 1.8 ± 0.3 min
Substance = Cc1cnc(-c2ccnc(C(C)(C)O)n2)cc1-n1c(C)cc(OCc2ncc(F)cc2F)c(Cl)c1=O; assay = HSP27 phosphorylation; system = human, ex vivo whole blood, plasma level; setting = added: lipopolysaccharide; endpoint = IC80; result = 0.0367 µg/mL (≈ 0.0714 µM)
Substance = CN(Cc1cc(Br)cc(Br)c1N)C1CCCCC1; system = ICR SCID mice, TRAMP cells iv, lung; setting = 30 mg/kg, 8 weeks; how to read = reference: vehicle; endpoint = mice with metastasis; result = 33%
